Experimental data of several laboratories.
Every numbered part comes from another study and shows a few of its results, in no order.

Study 1
Target: RNA binding protein fox-1 homolog 2, RRM domain, GST-SBP tag (RBFOX2, Homo sapiens, UniProt O43251-10, residues 100-194)
Technique: RNA Bind-n-Seq
Molecule type: RNA
Medium: in vitro
Concentration: 365 nM
Notes: natural RNA segment, single round, ends assumed
Reference: no-protein control
Reading: higher = stronger binding
Residues (chain): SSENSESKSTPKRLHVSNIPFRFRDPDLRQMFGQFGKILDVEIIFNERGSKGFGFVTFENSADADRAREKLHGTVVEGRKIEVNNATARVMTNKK
Sequence	RBNS enrichment (R)
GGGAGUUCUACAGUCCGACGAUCUAGUUUUAUUGAUUACACUGAUUUAUUCUACCCUAUUUUAUAAUGCAGGACUUUUGUAAUGUUGUCUAAAUGAGGAAACAUUUCUGUCAAAUUAGCCUAGUGAAAUCUCUUGGAAUUCUCGGGUGCCAA	0.323
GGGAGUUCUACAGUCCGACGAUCAGGCCAUAUGUAAAAACCCUUCCAAUGCCUAAGUGUCUUUCUCCUGCAACUCCAAACCCAGACUCGCCACUUUGGGUGCACAGGUGGUUAGGUCAGCCAACUGGUUCUGCUGGAAUUCUCGGGUGCCAA	0.428
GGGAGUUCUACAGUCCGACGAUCAGAACUAGCAAGUGUCCCAAUUUUUUCCAAACGUUGGGGAGGGGAAAAUUCACUGUAUCAUGAAACCCUAAGGGUUUGUUGCACUUCCUGCUUUUUAGGCCUGGAUAACAUGGAAUUCUCGGGUGCCAA	0.59
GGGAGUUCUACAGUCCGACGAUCAGCUGGCUAGAGAUUUAUUUGUUGUAAAUGCUGUAUAGAUUUGGUUUUCCUUUCUUUACUUACCCUGGUUUGGAUUUUUUUUUUUUUUCUUUUGAAUGGAUUUAUGCUGUUGGAAUUCUCGGGUGCCAA	0.467
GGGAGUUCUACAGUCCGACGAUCAUAAUAGUUCCAAUGUAUUGGCAUAAUUUGUUUGAAUGUCUUUAUUUUGAUAUUAACACCGGCAUAAAUCUAUUUUUGCUACCAGAUGAUAGCUAUUUUCAUUUGCUCUAUGGAAUUCUCGGGUGCCAA	0.561
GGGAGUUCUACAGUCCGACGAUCUCUUAGGUUGGAGAUGACAGAAAUAUGAUUGAUUUGAAGUGGAAAAAGAAAUUCUGUUAAUGUUAAUUAAAGUAAAAUUAUUCCCUGAAUUGUUUGAUAUUGUCACCUAGUGGAAUUCUCGGGUGCCAA	0.721
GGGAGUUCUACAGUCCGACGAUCGUAUGUGAGUGUCUGGAGACAGCAUAGCUGACCCCAAUCCCCCAGGGCUGAGGACCCCUCCAGGCCCCUCUCUCCUGGAAGUGCUGCAUAUGCCCCUGUGCCCAGUGGUUUGGAAUUCUCGGGUGCCAA	0.5
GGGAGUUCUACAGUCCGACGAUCCACCUACCUCCUGGAGCACGUGUUGCUGCCCAGCUGGUGGCCAGCCACACCAACCCUGUGCUCUCUGGCCCCCAGCUGGCCACACUUCUCCAGGAGGGACCCUUGGACUUUGGAAUUCUCGGGUGCCAA	0.178

Study 2
Target: Histone acetyltransferase KAT6A, winged helix 2, GST fusion (KAT6A, Homo sapiens, UniProt Q92794, residues 85-181)
Technique: protein binding microarray
Molecule type: double-stranded DNA, one strand shown
Medium: in vitro
Concentration: not given
Notes: 8-mer, flanks averaged, mean of 2 arrays, mostly near background
Reference: not given
Reading: higher = stronger binding
Target sequence (chain): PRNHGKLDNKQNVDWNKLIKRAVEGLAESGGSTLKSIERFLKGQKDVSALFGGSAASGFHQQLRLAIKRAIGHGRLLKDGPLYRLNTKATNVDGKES
Sequence	E-score
ACTTTCTA	-0.067
AAATAGCC	-0.194
CAAATTTA	-0.055
CTTGACTC	-0.167
ACGGGCTA	-0.116
CGAGGGTA	-0.0124
ATGCCCAC	0.0796
GTGTCCTA	0.0743
CGCGACCC	0.189
CACAAATC	-0.0318
AAATCGGG	-0.0876
GCGAAACC	0.118
CGATAGGA	-0.0537
AGCGTGGC	0.048
ACATATGC	-0.217
CGGACCCC	0.125
CCTATGTA	-0.111
AATATGCT	-0.114
AATTGTTC	0.143
ATGCTTTA	-0.0293
GATGACGA	0.0541
GCGTGAGA	0.0533
CGGCTCAA	0.171
CATTTTGA	0.0354

Study 3
Target: Interferon regulatory factor 7, full length, phosphomimetic (IRF7, Homo sapiens, UniProt Q92985, residues 1-503, S471D/S472D/S475D/S476D/S477D/S483D/S484D/S487D)
Sequence of UniProt Q92985 (whole entry, unmodified, looked up): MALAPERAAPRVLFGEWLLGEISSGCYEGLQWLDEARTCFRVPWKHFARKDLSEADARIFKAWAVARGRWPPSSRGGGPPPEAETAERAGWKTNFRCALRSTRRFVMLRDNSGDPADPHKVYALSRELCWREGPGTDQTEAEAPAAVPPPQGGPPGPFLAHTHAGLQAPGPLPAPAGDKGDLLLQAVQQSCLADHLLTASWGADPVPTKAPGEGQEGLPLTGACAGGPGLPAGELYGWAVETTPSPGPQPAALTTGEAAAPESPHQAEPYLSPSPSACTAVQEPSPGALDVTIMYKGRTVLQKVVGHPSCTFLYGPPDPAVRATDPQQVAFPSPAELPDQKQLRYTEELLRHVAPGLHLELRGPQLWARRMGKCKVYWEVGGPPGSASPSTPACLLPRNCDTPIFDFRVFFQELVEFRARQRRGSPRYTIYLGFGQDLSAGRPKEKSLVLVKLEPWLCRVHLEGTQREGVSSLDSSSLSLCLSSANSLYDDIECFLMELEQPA
Technique: protein-binding microarray
Molecule type: double-stranded DNA, one strand shown
Medium: in vitro
Concentration: 2200 nM top
Notes: 60-bp whole probe
Added: salmon DNA 0.4 mg/ml
Reference: random background probes
Reading: higher = stronger binding
Constant ends, left off below: GCCTAGCAC … GTCTTGATTCGCTTGACGCTGCTG
Sequence	fitted relative affinity [z-score]
TTAGGTTTCATTTTCCTTTAGTGCTAG	7.08
TTATGTTTCCTACTGCTTTAGTGCTAG	2.61
TCAGATCTCAGTTTCGATTAGTGCTAG	5.82
TCATCTTTCCTTACTTCACTGTGCTAG	2.74
GACGGTTTCCTTCTCATGACGTGCTAG	2.75
AACGGTATCGGTTTCGGGACGTGCTAG	4.3
ATATACCTGTATATCTTCAGGTGCTAG	0.946
GACGGTATCGGGTTTCGAGACGTGCTA	1.45
AATTTTTTGTATTTTTAGTGGTGCTAG	0.446
TTAGGTTTCCTTTTCCTTCAGTGCTAG	5.86
TTAGACTTCAGTCTCGATTAGTGCTAG	0.126
CATGAACTGTTTCTTGAAAAGTGCTAG	0.27
GATGTTTTGAGTTTTCCTTCGTGCTAG	1.93
AAGTTTATACCTTAGGTTTTGTGCTAG	0.249
GACGGTTTCGACACTGGGGACGTGCTA	2.86
TCACCTCTCACGCATCTGACTGTGCTA	1.55
GACGATATCAGTCTCGATACGTGCTAG	0.592
TTAGAACTAAGTTTCGATTAGTGCTAG	4.83

Study 4
Target: Phosphate system positive regulatory protein PHO4, full length, GST-tagged (PHO4, Saccharomyces cerevisiae, UniProt P07270, residues 1-312)
Technique: competition protein-binding microarray
Molecule type: double-stranded DNA, one strand shown
Medium: in vitro
Concentration: 2 µM
Notes: whole 60-bp probe, lowest competitor level
Added: Cbf1 competitor, 0.05 µM
Reading: higher = stronger binding
Construct (chain): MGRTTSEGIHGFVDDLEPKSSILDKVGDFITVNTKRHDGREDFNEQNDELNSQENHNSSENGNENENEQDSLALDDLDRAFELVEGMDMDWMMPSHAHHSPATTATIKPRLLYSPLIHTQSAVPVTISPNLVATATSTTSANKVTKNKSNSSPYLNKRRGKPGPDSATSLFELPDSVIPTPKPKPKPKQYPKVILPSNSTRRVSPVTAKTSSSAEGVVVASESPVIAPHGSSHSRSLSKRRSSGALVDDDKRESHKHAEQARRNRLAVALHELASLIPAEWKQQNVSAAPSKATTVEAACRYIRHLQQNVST
Sequence	fluorescence intensity
CCCTCAAGTTTCTCTTCTGGCGATTTGGGAATTTACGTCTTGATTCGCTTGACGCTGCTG	3210 a.u.
CATACCCAACCTTGTTGTGTGGGTGAAGATATTTGTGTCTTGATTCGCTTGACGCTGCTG	4910 a.u.
TGCGCAACAACTTGAGGAGTGGGTGTATGTCTAGAAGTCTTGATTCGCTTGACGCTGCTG	5030 a.u.
CGGGGTTAAGTTTGATCCGTGGGTGGCTTGCAGCAGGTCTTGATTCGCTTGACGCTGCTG	6190 a.u.
TATACGAATGTTACCCACGATGGCCGGAGTAGCTGTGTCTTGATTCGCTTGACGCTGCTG	12700 a.u.
GTCTTGTCTCATTGTCACCCAACTTTCCCCACTTCAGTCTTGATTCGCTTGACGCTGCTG	4130 a.u.
CTCTACCAGCACCATCACCTGTGAAATATTGACCAGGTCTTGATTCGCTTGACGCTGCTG	4990 a.u.
TGGAAGTATTTTACCCACGTATGGCAGGCAAGAACGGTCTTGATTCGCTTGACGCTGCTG	7060 a.u.
GCTTGCCGCGAACCTCTCGTGCGATGCCAAAGTGGTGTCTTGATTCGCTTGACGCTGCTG	7170 a.u.
GAAACCTTTTCCTCTTGCTCACCAGCTTCATTCTCGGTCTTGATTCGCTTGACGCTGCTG	2510 a.u.
AGACATAGGGAGATGCATGTGTAGCGGATCCGCCTGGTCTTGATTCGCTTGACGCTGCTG	7110 a.u.
GACAGATAGGACAAGCATGTGGTCTTGGCGCCTCTGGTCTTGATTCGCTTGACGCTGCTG	10300 a.u.
CATACCCAACCTTGTCACGTAACTTAAGATATTTGTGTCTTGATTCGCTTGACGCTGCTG	4780 a.u.
ACAACTGCGGGGACGCATGTGCTCTAAAGAAAGCAGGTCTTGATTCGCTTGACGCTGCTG	13500 a.u.
TTCCTGTAACACTGGCACGCTTGAAGTGAGCATAAAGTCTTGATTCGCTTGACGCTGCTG	7490 a.u.
AAATTACTAAGTTGTCACCGAACTTACCCCGTATGAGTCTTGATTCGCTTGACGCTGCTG	2820 a.u.
AAATTACTAAGTTGCGATGTGGGTGACGCCGTATGAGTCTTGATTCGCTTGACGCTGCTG	4330 a.u.
CTAACGAAGGTTTGCCGCGTGGGTGACAAGCCAAGTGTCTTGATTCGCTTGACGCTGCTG	10700 a.u.
GTAAGACCACAATCCATCGTGTCGGCCCCATGTCGGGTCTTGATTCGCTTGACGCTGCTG	8050 a.u.

Some of these lines once more (study 3):
Sequence	fitted relative affinity [z-score]
GACGGTTTCCTTCTCATGACGTGCTAG	2.75
AACGGTATCGGTTTCGGGACGTGCTAG	4.3
ATATACCTGTATATCTTCAGGTGCTAG	0.946
GACGGTATCGGGTTTCGAGACGTGCTA	1.45
AATTTTTTGTATTTTTAGTGGTGCTAG	0.446
